Published values gathered from unrelated publications.
Compare with care: the assays were run in different laboratories. Numbers after ± are the reported error.

With COc1c(Br)c(O)c2c(c1Br)OC(c1ccccc1)CC2=O (stereo not shown) the inhibition was 37.2 ± 7.62% (bovine serum albumin; methylglyoxal-mediated glycation, fluorescence; concentration not given).
NCCOc1cc(NC(=O)c2cc(OCc3cn([C@H]4O[C@@H](CO)[C@H](O)[C@@H](O)[C@@H]4O)nn3)cc(C(=O)Nc3cc(OCCN)c4ccccc4n3)n2)nc2ccccc12 gave a ΔTm of 6.5 ± 0.3 K (Bcl2 G-quadruplex DNA; FRET melting; 1 µM, pH 7.4, together with: 60 mM potassium).
For Cc1c(C)c2cccnc2c2ncccc12.O=[N+]([O-])[O-].O=c1c(C=NN=C([S-])Nc2ccccc2)coc2ccccc12.[Cu+2], “supercoiled DNA remaining” read 0% (supercoiled pUC19 DNA; oxidative DNA cleavage; concentration not given, DMSO 10%, together with: ascorbic acid).
C=CC(=O)N1[C@H](c2ccc3c(c2)OCO3)c2[nH]c3ccccc3c2C[C@@H]1C(=O)N1CCN(C)CC1 gave a relative co-enrichment of 120% (human cyclin E1 N112C-3xFLAG:CDK2; co-IP with TMT proteomics, refers to: HNRNPK; concentration not given, P61978; reference: wild type DMSO).
For N=C(NCC[C@H](NC(=O)c1noc(-c2cc(F)ccc2F)n1)c1nc2ccccc2[nH]1)c1ccc([N+](=O)[O-])o1, IFNβ secretion read “inhibited” (STING pathway; inhibitor; human CD14+ monocytes; 2.5 µM, together with: diABZI).
The remaining binding of Nc1ncc(-c2cc(-c3cnn(CC(F)(F)F)c3)ncc2F)nc1C(=O)NC1CNCC(F)C1 (stereo not shown) is reported as 68% (DMPK2; KINOMEscan; 1 µM; reference: DMSO control).
For CC(=O)N1c2ccc(-c3ccc(CNC(=O)c4cn5cc(-c6cnc(N)nc6)nc(N6CCOCC6)c5n4)cc3)cc2CC[C@@H]1C, the remaining binding was 96% (human TRIM33 PHD-bromodomain; BROMOscan; 10000 nM; reference: control).
CN(Cc1cc(C2CC2)on1)C(=O)c1cccc(-c2ccc3c(c2)CCO3)c1 has a reaction rate of 0.00123 a.u. (acetyl-CoA synthetase 1 (Aspergillus fumigatus); enzyme activity, inhibitor, coupled pyrophosphate; 5 µM; higher is more activity).
COc1ccc(C(=O)Nc2c(-c3cccs3)nc3ccccn23)cc1 has an inhibition of under 50% (sigma receptor 2; binding; 10 µM).
C=CC(=O)Nc1cccc(Cn2ncc3cnc(Nc4cnn(CCOC)c4)nc32)c1: “percent of control” 100% (PCTK2 human; binding, KINOMEscan; 100 nM; lower = stronger binding).
N=C(c1ccc([N+](=O)[O-])o1)N1CCC(NC(=O)c2cc(-c3ccc(F)cc3F)on2)(c2nc3ccccc3[nH]2)CC1: IFNβ secretion “inhibited” (STING pathway; inhibitor, ELISA; mouse iBMDM; concentration not given, 24 h, together with: diABZI 500 nM).
For NCCOc1cc(NC(=O)c2cc(Cl)cc(C(=O)Nc3cc(OCCN)c4ccccc4n3)n2)nc2ccccc12, the ΔTm was 23.1 ± 0.9 K (Bcl2 G-quadruplex DNA; FRET melting; 1 µM, pH 7.4, together with: 60 mM potassium).
c1ccc(-c2n[nH]cc2-c2ccnc3ccccc23)nc1: “log2 fold change” -0.13 (TPK1 (Candida albicans); kinase binding, MIB/MS competition; Candida albicans lysate; 1 µM; reference: DMSO).
